Measurements from different studies.
Parts stem from different laboratories: compare values within a part only.

Set 1 — technique: protein binding microarray; form: double-stranded DNA, one strand shown; matrix: in vitro; tested at: not given; reference: not given; reading: higher = stronger binding
Target: Histone acetyltransferase KAT6A, winged helix 2, GST fusion (KAT6A, Homo sapiens, UniProt Q92794, residues 85-181)
Setting: 8-mer, flanks averaged, mean of 2 arrays, mostly near background
Construct (chain): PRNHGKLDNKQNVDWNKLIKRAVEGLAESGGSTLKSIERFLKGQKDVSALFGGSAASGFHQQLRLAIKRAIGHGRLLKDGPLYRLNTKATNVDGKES
`CTAGATGC` gave an E-score of -0.0447.
The E-score of `CCCTGCAC` is reported as -0.053.
The E-score of `ATGTAACC` is reported as -0.109.
The E-score of `GGAACGCC` is reported as -0.0208.
With `TAGACCAA` the E-score was -0.084.
For `CATCGTCG`, the E-score was -0.14.
For `GCTAGTTA`, the E-score was -0.0883.
With `CCTTGCTC` the E-score was 0.0562.
With `GGAAGTGA` the E-score was 0.0993.
The E-score of `GCATCGGC` is reported as 0.128.
For `GAGCGCTC`, the E-score was -0.0645.
The E-score of `ATCATCAA` is reported as 0.122.
`GCAGACCA` has an E-score of 0.0705.
`AAGACACT` has an E-score of -0.00566.
For `AGTCAATA`, the E-score was -0.07.
With `GGTTTCAA` the E-score was -0.00114.
`GCACCTCC` has an E-score of 0.11.
With `GAGCAATC` the E-score was 0.0824.
`ATGGGTTA` has an E-score of -0.0633.
With `ATGGACCC` the E-score was -0.127.
`ATTTTCCG` gave an E-score of 0.187.
For `GCCCGAGC`, the E-score was 0.199.
`TTCTGAAA` gave an E-score of 0.0301.
The E-score of `GCGTTAAC` is reported as 0.00856.
The E-score of `AGGTCTGC` is reported as -0.04.

Set 2 — technique: RNA Bind-n-Seq; form: RNA; matrix: in vitro; tested at: 100 nM; reference: input RNA pool; reading: higher = stronger binding
Target: RING finger protein unkempt homolog, zinc fingers 1-6, SBP tag (UNK, Homo sapiens, UniProt Q9C0B0, residues 30-357)
Sequence of UniProt Q9C0B0 (30-357, looked up): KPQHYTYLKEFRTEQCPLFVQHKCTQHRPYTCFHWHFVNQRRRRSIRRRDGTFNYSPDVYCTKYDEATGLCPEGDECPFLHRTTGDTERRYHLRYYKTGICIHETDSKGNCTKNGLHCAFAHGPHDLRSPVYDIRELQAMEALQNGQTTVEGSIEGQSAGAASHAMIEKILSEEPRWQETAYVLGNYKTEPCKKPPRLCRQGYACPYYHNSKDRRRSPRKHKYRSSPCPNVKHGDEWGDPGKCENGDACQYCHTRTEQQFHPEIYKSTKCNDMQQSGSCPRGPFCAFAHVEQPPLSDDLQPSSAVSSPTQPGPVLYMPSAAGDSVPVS
Setting: RNA with constant flanks, vertebrate orthologous sites, ends assumed
The bound/input enrichment of `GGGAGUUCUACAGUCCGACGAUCGCAUGCACAUGCCGCUGUCACCAAAAGCAACUGCCGUCUUCAAAAUCUCCAGUAGCCUUCUUAGGAUUCUCUCCCUCCUUCCCUUCUGUUCCCCCGAUGCUUUAAAUGAUUAGAAGUCCUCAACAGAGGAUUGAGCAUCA` is reported as 1.3 ratio.
`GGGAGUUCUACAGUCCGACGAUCGUGUUUUGUACAGGGCAUCAUCCUCUGUACAAGUUUGUGGUUAUAAAAUAAUUAGUAAAACAGCUUACAUUUGUAUUUAUUUUCUAGUCCAUACUUCUGUACCCCGUUUUUUUCUCCCUUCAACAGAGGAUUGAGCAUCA` gave a bound/input enrichment of 0.636 ratio.
For `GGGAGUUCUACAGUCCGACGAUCGCAAUGAAAAAGCAUCCCUUCUCCCAGCCCCCUUUUCACUAGGAGAUACAAACGUUACCAUAGAAGAGCAAUUAAACUCAGUAAAUUUAUCUUUUCAGGAUGAUCCAGACUCCAGUACCACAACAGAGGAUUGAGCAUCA`, the bound/input enrichment was 1.23 ratio.
`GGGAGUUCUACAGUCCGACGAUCGUACUACCUGUGCGAAUCUCACAACACUGAAUGCAAAGUAGCAAUUUUCAUAGUCACAGUUAGGUAGCUUUAGGGCAGUAUUGCCAUGGUUUUACUCAUAUGCAGGUUUUGAAAAUGUACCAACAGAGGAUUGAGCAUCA` gave a bound/input enrichment of 1.17 ratio.
`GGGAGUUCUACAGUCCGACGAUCGAAAAUGGCUUCUGCUCCAUUAAAAAAUAAAAAUUGUCCACUAAAUAUAAAACUCCUUAAUAGGUAUUUUUGAAAUUAAAAUCUUUAAAUUUUAUAAAUCAGCUCUUGCCACUUCACAACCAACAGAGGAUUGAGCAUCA` has a bound/input enrichment of 2.04 ratio.
`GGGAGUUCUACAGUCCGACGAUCUUUACAAUCUACUUAAGUAGGUUUUUACAUACCACAUUAAGCCUUCAUUUUACAUAUUUACAGCUUUUCUGUUUUCCAUAUGAAAUCAAAGAAUUUAAUGCUCAAAGUUAAAUGUGGUCUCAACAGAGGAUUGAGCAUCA` has a bound/input enrichment of 0.246 ratio.
For `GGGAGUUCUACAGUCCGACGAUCCCAGGCUUGGAUCCUGCACCGCUGUCCACUUCUGCAUCCUGUCCUUCGCCUCCCCGUCACACAGCUCCUGCAAACAUGAAGUGAAUAAAGUUGUGUGUGUGAAAUGGAACUGCCACAUAACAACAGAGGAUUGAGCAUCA`, the bound/input enrichment was 0.482 ratio.
For `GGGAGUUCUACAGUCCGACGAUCUUCAUUACCUGAGCCGAGUGGAGGUGACGGAGUUUGAAGACAUCAAGUCAGGCUACAGAAUAGAUUUUUGUUUAAUGGUUUCACGUAACACUUUAGUGACUAUUUUUAUUUAUUUAAUUACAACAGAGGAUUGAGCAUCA`, the bound/input enrichment was 1.09 ratio.

Set 3 — technique: RNA Bind-n-Seq; form: RNA; matrix: in vitro; tested at: 365 nM; reference: no-protein control; reading: higher = stronger binding
Target: RNA binding protein fox-1 homolog 2, RRM domain, GST-SBP tag (RBFOX2, Homo sapiens, UniProt O43251-10, residues 100-194)
Setting: natural RNA segment, single round, ends assumed
`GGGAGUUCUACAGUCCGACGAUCUUAGCAGACUGCAGUCAAUCCACAUUCAAUAAAAAGUAUAUAAUGCCCAUUUUUAUAUGCACGUUUUUAAACUUCCAAGUUCUGAAAAUUGUUUACUGGUUAUCUCUAUUUGGAAUUCUCGGGUGCCAA`: “RBNS enrichment (R)” 1.15.
Under “RBNS enrichment (R)”, `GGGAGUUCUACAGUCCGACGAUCCUGUGGAAGGAAGUGGCUGUGACUUUAACCACUGGAGAGCGGAGUCUGUGGUGUGGAGAGGGUGUUCACUGUGUAAUCUUGGGCUGUGUGGAGUUGUUCUUAUCACCUUGUGGAAUUCUCGGGUGCCAA` is recorded as 2.01.
Under “RBNS enrichment (R)”, `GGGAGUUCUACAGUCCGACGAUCUCACAUGGAAGGCGGCACAGAGGCAGCUGUGUGGGCUGCAGAUUUCCUGUGUGGGGUUCAGCGUAGAAAACGCACCUCCAUCCCGCCCUUCCCACAGCAUUCCUCCAUCUUGGAAUUCUCGGGUGCCAA` is recorded as 0.614.
Under “RBNS enrichment (R)”, `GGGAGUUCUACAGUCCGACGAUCCCUGCUGGCUCAGUAUCGGCUGGCCAGUCAAGUGAAAGAGGAGGUGGAGCAUUUCCUGAAAGGCUUGAAUGAGCUGGUUCCUGAGAACCUCCUGGCUAUUUUUGAUGAGAUGGAAUUCUCGGGUGCCAA` is recorded as 0.803.
Under “RBNS enrichment (R)”, `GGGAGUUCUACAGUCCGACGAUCAGUGGCUUAGGAACAUCAGCAGUGAAGAACUGCCAAGAGUUGGUGAAGGUUGUCUCUUCCGAGGGCCUUCUGAAGACAGGGCUCUUGAACAGACAAGUGGAAGGGCUGUAUGGAAUUCUCGGGUGCCAA` is recorded as 0.365.
`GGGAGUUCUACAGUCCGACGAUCCUCCAGGAGACUUGGGGAUUUGUGUUUAGCUAUGUGUGGGAAUUUGCAAAUGCUUUGUGCUUUGACUGUCACCACGAAAAGGAAGAAAUUCAUGUCAGUGAAGAAAUGCAUGGAAUUCUCGGGUGCCAA` — result for “RBNS enrichment (R)”: 1.36.
Under “RBNS enrichment (R)”, `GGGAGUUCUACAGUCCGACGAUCGAGCUGUUUUUGUAAAAUGACUGCUGACAGCAAGUUCUUGCUGCUCUCCAAUCUCAUCAGACAGUAGAAUGUAGGGAAAAACUUUUGCCCGACUGAUUUUUAAAAAGGAAUGGAAUUCUCGGGUGCCAA` is recorded as 0.494.
`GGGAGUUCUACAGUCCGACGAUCGGUGGGCACUGAAUGUGGUUUUUAGAUUUUUGUAUUGUGGACUGUCUUUGCCUCAUAUUAAAAACUCAUCCCAUGGCCGCUAGGCCACCGUGCUCCAAGGGAGCUCUCAGUGGAAUUCUCGGGUGCCAA` — result for “RBNS enrichment (R)”: 0.472.

Set 4 — technique: protein-binding microarray; form: double-stranded DNA, one strand shown; matrix: in vitro; tested at: 940 nM top; setting: 60-bp whole probe; added: salmon DNA 0.4 mg/ml; reference: random background probes; reading: higher = stronger binding; shared flanks, not repeated: GCCTAGCAC … GTCTTGATTCGCTTGACGCTGCTG
Target: Interferon regulatory factor 5, full length, phosphomimetic (IRF5, Homo sapiens, UniProt Q13568-2, residues 1-514, S451D/S453D/S456D/S462D)
For `TTAGGTTTTGGTCTCGGTTAGTGCTAG`, “fitted relative affinity” read 6.71 z-score.
`GACGATTCCGGTTTCGGGACGTGCTAG`: “fitted relative affinity” 4.23 z-score.
Under “fitted relative affinity”, `TCAAGTTCATGTTTTGGACTGTGCTAG` is recorded as -0.214 z-score.
For `GACGGTATCGGTATCGGAACGTGCTAG`, “fitted relative affinity” read 9.42 z-score.
Under “fitted relative affinity”, `GACGGTATCATTATCCTGACGTGCTAG` is recorded as 2.75 z-score.
`TAAGGAGGCAGGGATGCTCCGTGCTAG` — result for “fitted relative affinity”: -0.573 z-score.
`TTAGGTCTCCTTTTCCTTCAGTGCTAG` — result for “fitted relative affinity”: 0.879 z-score.
For `TTAGGTATCGGGAGTGGGTTAGTGCTA`, “fitted relative affinity” read 4.02 z-score.
`TTAGGTATTGACTATCGGTTAGTGCTA`: “fitted relative affinity” 0.271 z-score.
`CTAGGACTGCTTTTCCTTTAGTGCTAG` — result for “fitted relative affinity”: -0.00223 z-score.
`TTAGGTATCGACGCTGGGTTAGTGCTA` — result for “fitted relative affinity”: 4.28 z-score.
For `TCAAAAATCATTTTCTCACTGTGCTAG`, “fitted relative affinity” read 0.414 z-score.
For `TTAGATATCAGTTTCGATCAGTGCTAG`, “fitted relative affinity” read 7.47 z-score.
Under “fitted relative affinity”, `GAAGAACTGGGGTATCGAGACGTGCTA` is recorded as 0.873 z-score.
`TGAGGACTGGACACTGGGTTAGTGCTA` — result for “fitted relative affinity”: -0.366 z-score.
For `TTAGATAGCAGTCTCGATTAGTGCTAG`, “fitted relative affinity” read 1.92 z-score.
`TGCTTCCTAATTCTCTTTTCGTGCTAG` — result for “fitted relative affinity”: 1.76 z-score.
Under “fitted relative affinity”, `TCAGGACTGGGGTTTCGGTTAGTGCTA` is recorded as 6.05 z-score.
Under “fitted relative affinity”, `TTAGGTATCCTTTTCCGTTAGTGCTAG` is recorded as 0.578 z-score.

Repeated from above (set 2):
`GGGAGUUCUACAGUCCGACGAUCGUGUUUUGUACAGGGCAUCAUCCUCUGUACAAGUUUGUGGUUAUAAAAUAAUUAGUAAAACAGCUUACAUUUGUAUUUAUUUUCUAGUCCAUACUUCUGUACCCCGUUUUUUUCUCCCUUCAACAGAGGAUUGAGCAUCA` gave a bound/input enrichment of 0.636 ratio.
For `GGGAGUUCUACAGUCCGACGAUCGCAAUGAAAAAGCAUCCCUUCUCCCAGCCCCCUUUUCACUAGGAGAUACAAACGUUACCAUAGAAGAGCAAUUAAACUCAGUAAAUUUAUCUUUUCAGGAUGAUCCAGACUCCAGUACCACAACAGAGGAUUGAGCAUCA`, the bound/input enrichment was 1.23 ratio.
`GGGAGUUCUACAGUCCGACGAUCGUACUACCUGUGCGAAUCUCACAACACUGAAUGCAAAGUAGCAAUUUUCAUAGUCACAGUUAGGUAGCUUUAGGGCAGUAUUGCCAUGGUUUUACUCAUAUGCAGGUUUUGAAAAUGUACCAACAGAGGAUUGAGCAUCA` gave a bound/input enrichment of 1.17 ratio.
`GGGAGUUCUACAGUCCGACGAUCGAAAAUGGCUUCUGCUCCAUUAAAAAAUAAAAAUUGUCCACUAAAUAUAAAACUCCUUAAUAGGUAUUUUUGAAAUUAAAAUCUUUAAAUUUUAUAAAUCAGCUCUUGCCACUUCACAACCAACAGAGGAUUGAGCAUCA` has a bound/input enrichment of 2.04 ratio.
`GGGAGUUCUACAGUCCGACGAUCUUUACAAUCUACUUAAGUAGGUUUUUACAUACCACAUUAAGCCUUCAUUUUACAUAUUUACAGCUUUUCUGUUUUCCAUAUGAAAUCAAAGAAUUUAAUGCUCAAAGUUAAAUGUGGUCUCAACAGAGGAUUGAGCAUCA` has a bound/input enrichment of 0.246 ratio.
For `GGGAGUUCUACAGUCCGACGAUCCCAGGCUUGGAUCCUGCACCGCUGUCCACUUCUGCAUCCUGUCCUUCGCCUCCCCGUCACACAGCUCCUGCAAACAUGAAGUGAAUAAAGUUGUGUGUGUGAAAUGGAACUGCCACAUAACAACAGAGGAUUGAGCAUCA`, the bound/input enrichment was 0.482 ratio.
